Experimental data from different studies.
“And” joins repeats or separate records; there may be more than shown. ± gives the spread as reported.

Cc1cc(-c2ccc3ccccc3c2)nnc1NCCN1CCN(C)CC1
compound remaining (metabolic stability; human, liver microsomes; 30 min): 91.1%

CC(CCC(=O)NCC(=O)O)C1CCC2C3C(O)CC4CC(OC5OC(C(=O)O)C(O)C(O)C5O)CCC4(C)C3CCC12C (stereo not shown)
plasma concentration (men, T/T genotype, plasma; dose not given, geometric mean): 37.3 ng/mL

CCCCCCCCCCCCCCCC(=O)N[C@@H](CCC(=O)NCCOCCOCCC(=O)NCCOCCOCCC(=O)NCCCC[C@H](NC(=O)[C@H](CC(=O)O)NC(=O)[C@H](CC(C)C)NC(=O)[C@H](Cc1ccc(O)cc1)NC(=O)[C@H](CCCCN)NC(=O)[C@H](CO)NC(=O)[C@H](Cc1ccc(O)cc1)NC(=O)[C@H](CC(=O)O)NC(=O)[C@H](CO)NC(=O)[C@@H](NC(=O)[C@H](Cc1ccccc1)NC(=O)[C@@H](NC(=O)CNC(=O)[C@H](CCC(N)=O)NC(=O)[C@@H](CO)NC(=O)[C@@H](N)Cc1c[nH]cn1)[C@@H](C)O)[C@@H](C)O)C(=O)N[C@@H](CCCNC(=N)N)C(=O)N[C@@H](CCCNC(=N)N)C(=O)N[C@@H](C)C(=O)N[C@@H](CCC(N)=O)C(=O)N[C@@H](CC(=O)O)C(=O)N[C@@H](Cc1ccccc1)C(=O)N[C@H](C(=O)N[C@@H](CCC(N)=O)C(=O)N[C@@H](Cc1c[nH]c2ccccc12)C(=O)N[C@@H](CC(C)C)C(=O)N[C@@H](CC(C)C)C(=O)N[C@@H](CC(N)=O)C(=O)N[C@H](C(=O)NCC(=O)NCC(=O)N1CCC[C@H]1C(=O)N[C@@H](CO)C(=O)N[C@@H](CO)C(=O)NCC(=O)N[C@@H](C)C(=O)N1CCC[C@H]1C(=O)N1CCC[C@H]1C(=O)N1CCC[C@H]1C(=O)N[C@@H](CO)C(N)=O)[C@@H](C)O)C(C)C)C(=O)O
AUC(0-t) (rhesus monkey, female, plasma; subcutaneous, 300 µg/kg, day 28, toxicokinetics, mean): 3370 ng·h/mL

C#Cc1c(F)ccc2cc(O)cc(-c3ncc4c(N5CC6CCC(C5)N6C(=O)OC(C)OC(=O)C(CCCC)CCCCCC)nc(OC[C@@]56CCCN5C[C@H](F)C6)nc4c3F)c12 (stereo partly shown)
t1/2 (refers to: prodrug; mouse whole blood; 1 µM): 49.5 min

CC(=O)N[C@H](C(=O)N[C@@H](CCCC(=O)OC(C)(C)C)C(=O)N[C@@H](CCC1CCCCC1)C(=O)N[C@@H](CC(=O)O)C(=O)COC(=O)c1c(C)cccc1C)C(C)(C)C
AST (C57BL/6N mouse, serum; concentration not given, compound alone): 316 U/L and 450 U/L and 390 U/L and 328 U/L and 590 U/L and 1320 U/L

CSCC[C@H](N)C(=O)N[C@@H](C)C(=O)N[C@@H](CCCNC(=N)N)C(=O)N[C@@H](CCCNC(=N)N)C(=O)N[C@@H](CC(=O)O)C(=O)N[C@@H](CCCCN)C(=O)N[C@H](C(=O)N[C@@H](CC(=O)O)C(=O)N[C@@H](Cc1ccccc1)C(=O)N[C@@H](C)C(=O)N[C@@H](CCCNC(=N)N)C(=O)N[C@@H](CCCNC(=N)N)C(=O)N[C@@H](CCCNC(=N)N)C(=O)N[C@@H](CCCNC(=N)N)C(=O)NCCCCCC(=O)NCCCCC(NC(=O)CCCCCNC(=O)[C@H](CCCNC(=N)N)NC(=O)[C@H](CCCNC(=N)N)NC(=O)[C@H](CCCNC(=N)N)NC(=O)[C@H](CCCNC(=N)N)NC(=O)[C@H](C)NC(=O)[C@H](Cc1ccccc1)NC(=O)[C@H](CC(=O)O)NC(=O)[C@@H](NC(=O)[C@H](CCCCN)NC(=O)[C@H](CC(=O)O)NC(=O)[C@H](CCCNC(=N)N)NC(=O)[C@H](CCCNC(=N)N)NC(=O)[C@H](C)NC(=O)[C@@H](N)CCSC)[C@@H](C)O)C(=O)NCCCCC(NC(=O)C(CCCCNC(=O)CCCCCNC(=O)[C@H](CCCNC(=N)N)NC(=O)[C@H](CCCNC(=N)N)NC(=O)[C@H](CCCNC(=N)N)NC(=O)[C@H](CCCNC(=N)N)NC(=O)[C@H](C)NC(=O)[C@H](Cc1ccccc1)NC(=O)[C@H](CC(=O)O)NC(=O)[C@@H](NC(=O)[C@H](CCCCN)NC(=O)[C@H](CC(=O)O)NC(=O)[C@H](CCCNC(=N)N)NC(=O)[C@H](CCCNC(=N)N)NC(=O)[C@H](C)NC(=O)[C@@H](N)CCSC)[C@@H](C)O)NC(=O)CCCCCNC(=O)[C@H](CCCNC(=N)N)NC(=O)[C@H](CCCNC(=N)N)NC(=O)[C@H](CCCNC(=N)N)NC(=O)[C@H](CCCNC(=N)N)NC(=O)[C@H](C)NC(=O)[C@H](Cc1ccccc1)NC(=O)[C@H](CC(=O)O)NC(=O)[C@@H](NC(=O)[C@H](CCCCN)NC(=O)[C@H](CC(=O)O)NC(=O)[C@H](CCCNC(=N)N)NC(=O)[C@H](CCCNC(=N)N)NC(=O)[C@H](C)NC(=O)[C@@H](N)CCSC)[C@@H](C)O)C(N)=O)[C@@H](C)O (stereo partly shown)
mean tissue distribution (C57BL/6 mouse female, spleen; dose not given, 3 h; reference: total): 0.94%

C/C(=N\OCCCN1CCCCC1)c1ccc(C(F)(F)F)cc1
AUC(0-t) (mouse, plasma; oral, 50 mg/kg once daily, day 7): 4620 ± 1550 ng·h/mL

O=C1NC2(CC2)COc2ncc(F)cc2[C@H]2COCCN2c2ccn3ncc1c3n2
organ-to-body weight ratio (Sprague-Dawley rat, female, kidneys; oral, 5 mg/kg/day, 4 weeks dosing, end of recovery): 0.645 ± 0.032%

COc1ccc(CNc2ccc3c(c2)S(=O)(=O)C=C3)cc1
CD45+ cells (flow cytometry; male C57BL/6 mice, spleen; i.p., 20 mg/kg, 8 days; reference: splenocytes): 72.7%

O=C(c1cc(Cc2n[nH]c(=O)c3ccccc23)ccc1F)N1CC(CNC2CC2)C1
AUC(0-inf) (female ICR mouse, plasma; oral, 60 mg/kg): 6420 ng·h/mL

CC[C@H](C)[C@H](NC(=O)[C@H](CCCCN)NC(=O)CNC(=O)[C@H](CC(C)C)NC(=O)[C@H](Cc1ccccc1)NC(=O)[C@H](CCCCN)NC(=O)[C@H](CO)NC(=O)[C@H](Cc1ccccc1)NC(=O)[C@H](Cc1c[nH]c2ccccc12)NC(=O)[C@H](CCC(N)=O)NC(=O)[C@@H](NC(=O)[C@H](Cc1ccccc1)NC(=O)CCCCCNC(=O)CN1CCN(CC(=O)O)CCN(CC(=O)O)CCN(CC(=O)O)CC1)C(C)C)C(=O)N[C@@H](CCC(=O)O)C(=O)N1CCC[C@H]1C(=O)N[C@@H](CC(=O)O)C(=O)N[C@H](C(=O)N[C@@H](CO)C(=O)N[C@@H](CCC(N)=O)C(=O)N[C@H](C(=O)N[C@@H](CCC(N)=O)C(=O)N[C@@H](CC(=O)O)C(=O)N1CCC[C@H]1C(=O)N[C@@H](CC(N)=O)C(=O)N[C@@H](CC(=O)O)C(=O)N[C@@H](CCC(N)=O)C(=O)N[C@@H](Cc1ccc(O)cc1)C(=O)N[C@@H](CCC(=O)O)C(=O)N1CCC[C@H]1C(=O)N[C@@H](Cc1ccccc1)C(=O)O)C(C)C)C(C)C [copper-64 labelled]
SUVmean (dynamic PET; mouse, CT26 tumour, checkpoint inhibitor-treated, tumour; intravenous, 100 µCi/mouse, 1260 s): 4.86 SUV

CN1Cc2cc(Cl)ccc2-n2c(nnc2C2CCN(c3cccc([18F])n3)CC2)C1
total volume of distribution (PET two-tissue compartment model; rhesus monkey, amygdala; intravenous, dose not given, 60 min scan, baseline scan): 1.03 ± 0.34 mL/cm3

CC(=O)NCCCC[C@@H]1NC(=O)[C@H](Cc2c[nH]c3c(C)cccc23)NC(=O)[C@H]([C@@H](C)O)NC(=O)[C@H](CC(N)=O)NC(=O)[C@@H](NC(C)=O)C(C)(C)SSC(C)(C)[C@@H](C(=O)N[C@@H](Cc2ccc(OCCN)cc2)C(=O)N[C@@H](Cc2ccc3ccccc3c2)C(=O)NC2(C(=O)N[C@@H](CCC(=O)O)C(=O)N[C@@H](CC(N)=O)C(=O)N[C@@H](Cc3cccnc3)C(=O)N(C)CC(N)=O)CCOCC2)NC1=O
share of drug-related material (metabolic profiling; Sprague Dawley rat, feces; oral, 300 mg/kg, 0 to 24 h): 96.3%

Repeated from above:
CSCC[C@H](N)C(=O)N[C@@H](C)C(=O)N[C@@H](CCCNC(=N)N)C(=O)N[C@@H](CCCNC(=N)N)C(=O)N[C@@H](CC(=O)O)C(=O)N[C@@H](CCCCN)C(=O)N[C@H](C(=O)N[C@@H](CC(=O)O)C(=O)N[C@@H](Cc1ccccc1)C(=O)N[C@@H](C)C(=O)N[C@@H](CCCNC(=N)N)C(=O)N[C@@H](CCCNC(=N)N)C(=O)N[C@@H](CCCNC(=N)N)C(=O)N[C@@H](CCCNC(=N)N)C(=O)NCCCCCC(=O)NCCCCC(NC(=O)CCCCCNC(=O)[C@H](CCCNC(=N)N)NC(=O)[C@H](CCCNC(=N)N)NC(=O)[C@H](CCCNC(=N)N)NC(=O)[C@H](CCCNC(=N)N)NC(=O)[C@H](C)NC(=O)[C@H](Cc1ccccc1)NC(=O)[C@H](CC(=O)O)NC(=O)[C@@H](NC(=O)[C@H](CCCCN)NC(=O)[C@H](CC(=O)O)NC(=O)[C@H](CCCNC(=N)N)NC(=O)[C@H](CCCNC(=N)N)NC(=O)[C@H](C)NC(=O)[C@@H](N)CCSC)[C@@H](C)O)C(=O)NCCCCC(NC(=O)C(CCCCNC(=O)CCCCCNC(=O)[C@H](CCCNC(=N)N)NC(=O)[C@H](CCCNC(=N)N)NC(=O)[C@H](CCCNC(=N)N)NC(=O)[C@H](CCCNC(=N)N)NC(=O)[C@H](C)NC(=O)[C@H](Cc1ccccc1)NC(=O)[C@H](CC(=O)O)NC(=O)[C@@H](NC(=O)[C@H](CCCCN)NC(=O)[C@H](CC(=O)O)NC(=O)[C@H](CCCNC(=N)N)NC(=O)[C@H](CCCNC(=N)N)NC(=O)[C@H](C)NC(=O)[C@@H](N)CCSC)[C@@H](C)O)NC(=O)CCCCCNC(=O)[C@H](CCCNC(=N)N)NC(=O)[C@H](CCCNC(=N)N)NC(=O)[C@H](CCCNC(=N)N)NC(=O)[C@H](CCCNC(=N)N)NC(=O)[C@H](C)NC(=O)[C@H](Cc1ccccc1)NC(=O)[C@H](CC(=O)O)NC(=O)[C@@H](NC(=O)[C@H](CCCCN)NC(=O)[C@H](CC(=O)O)NC(=O)[C@H](CCCNC(=N)N)NC(=O)[C@H](CCCNC(=N)N)NC(=O)[C@H](C)NC(=O)[C@@H](N)CCSC)[C@@H](C)O)C(N)=O)[C@@H](C)O (stereo partly shown)
mean tissue distribution (C57BL/6 mouse female, spleen; dose not given, 3 h; reference: total): 0.94%
